# Assay results gathered from unrelated publications.
# Lines come from different studies, so protocols differ. Several values in a cell are separate wells, animals, samples, runs or records. ± gives the spread as reported.
# PNLIP: Pancreatic triacylglycerol lipase (PNLIP, Homo sapiens, UniProt P16233)
# UniProt P16233, sequence (whole entry, looked up): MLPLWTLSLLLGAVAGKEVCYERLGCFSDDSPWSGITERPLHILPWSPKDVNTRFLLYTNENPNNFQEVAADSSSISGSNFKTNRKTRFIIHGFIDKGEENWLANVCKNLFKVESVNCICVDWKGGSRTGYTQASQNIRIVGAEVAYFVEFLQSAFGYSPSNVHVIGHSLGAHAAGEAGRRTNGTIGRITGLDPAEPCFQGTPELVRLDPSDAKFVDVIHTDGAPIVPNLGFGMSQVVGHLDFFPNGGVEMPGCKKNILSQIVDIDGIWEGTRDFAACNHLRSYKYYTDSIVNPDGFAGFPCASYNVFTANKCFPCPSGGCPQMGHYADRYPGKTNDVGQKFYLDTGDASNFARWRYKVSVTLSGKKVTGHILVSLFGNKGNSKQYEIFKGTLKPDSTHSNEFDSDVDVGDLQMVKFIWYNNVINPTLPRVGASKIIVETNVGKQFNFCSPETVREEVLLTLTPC
# MAPK9: Mitogen-activated protein kinase 9 (MAPK9, Homo sapiens, UniProt P45984)
# UniProt P45984, sequence (whole entry, looked up): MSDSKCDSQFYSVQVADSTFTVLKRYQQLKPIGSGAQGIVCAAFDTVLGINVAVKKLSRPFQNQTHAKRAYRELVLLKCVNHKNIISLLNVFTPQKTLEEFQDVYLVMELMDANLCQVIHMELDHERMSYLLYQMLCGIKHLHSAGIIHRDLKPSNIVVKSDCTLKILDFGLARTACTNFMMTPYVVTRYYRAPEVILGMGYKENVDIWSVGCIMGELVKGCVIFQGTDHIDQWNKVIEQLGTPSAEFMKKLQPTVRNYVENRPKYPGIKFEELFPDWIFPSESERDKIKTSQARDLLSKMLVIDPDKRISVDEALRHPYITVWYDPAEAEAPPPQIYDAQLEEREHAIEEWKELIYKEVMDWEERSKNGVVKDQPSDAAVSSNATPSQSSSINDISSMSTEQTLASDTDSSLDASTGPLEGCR
# CRBN/Zinc finger protein Aiolos: CRBN/Zinc finger protein Aiolos (Homo sapiens, UniProt Q96SW2+Q9UKT9)
# IL1RL2: Interleukin-1 receptor-like 2 (IL1RL2, Homo sapiens, UniProt Q9HB29)
# UniProt Q9HB29, sequence (whole entry, looked up): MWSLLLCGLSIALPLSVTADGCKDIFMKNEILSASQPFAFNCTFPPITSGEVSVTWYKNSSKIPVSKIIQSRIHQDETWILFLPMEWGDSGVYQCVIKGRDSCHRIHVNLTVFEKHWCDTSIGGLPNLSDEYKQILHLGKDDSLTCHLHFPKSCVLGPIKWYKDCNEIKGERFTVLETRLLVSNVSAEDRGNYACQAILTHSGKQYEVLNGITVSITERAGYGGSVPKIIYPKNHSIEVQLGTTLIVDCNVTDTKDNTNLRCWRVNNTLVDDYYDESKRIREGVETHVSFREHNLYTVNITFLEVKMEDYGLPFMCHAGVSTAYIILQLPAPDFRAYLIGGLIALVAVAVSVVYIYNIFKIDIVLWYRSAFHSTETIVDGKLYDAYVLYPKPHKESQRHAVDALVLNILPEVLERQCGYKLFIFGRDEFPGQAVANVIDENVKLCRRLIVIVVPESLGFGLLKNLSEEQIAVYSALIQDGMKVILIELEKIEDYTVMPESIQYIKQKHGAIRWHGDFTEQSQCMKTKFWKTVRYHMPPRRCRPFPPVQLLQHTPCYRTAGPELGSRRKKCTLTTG
# UniProt P36969, sequence (whole entry, looked up): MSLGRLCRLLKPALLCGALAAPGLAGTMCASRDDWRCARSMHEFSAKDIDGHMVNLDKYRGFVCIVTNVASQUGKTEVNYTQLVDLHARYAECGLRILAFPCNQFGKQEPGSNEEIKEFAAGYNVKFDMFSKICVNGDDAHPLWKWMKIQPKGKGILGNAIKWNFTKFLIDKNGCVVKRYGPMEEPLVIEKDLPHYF
# UniProt P45983, sequence (whole entry, looked up): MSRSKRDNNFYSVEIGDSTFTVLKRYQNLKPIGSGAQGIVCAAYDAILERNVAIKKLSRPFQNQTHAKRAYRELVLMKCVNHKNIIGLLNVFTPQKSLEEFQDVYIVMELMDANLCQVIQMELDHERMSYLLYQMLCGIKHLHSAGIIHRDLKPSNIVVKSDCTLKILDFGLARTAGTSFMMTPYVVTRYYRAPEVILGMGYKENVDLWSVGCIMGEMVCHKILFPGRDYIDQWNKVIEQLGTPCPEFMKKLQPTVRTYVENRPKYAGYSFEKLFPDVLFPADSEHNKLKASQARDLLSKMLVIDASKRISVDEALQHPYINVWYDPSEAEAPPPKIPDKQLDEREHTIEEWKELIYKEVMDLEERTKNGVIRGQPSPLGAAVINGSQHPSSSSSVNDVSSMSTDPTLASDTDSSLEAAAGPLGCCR
# UniProt P54578, sequence (whole entry, looked up): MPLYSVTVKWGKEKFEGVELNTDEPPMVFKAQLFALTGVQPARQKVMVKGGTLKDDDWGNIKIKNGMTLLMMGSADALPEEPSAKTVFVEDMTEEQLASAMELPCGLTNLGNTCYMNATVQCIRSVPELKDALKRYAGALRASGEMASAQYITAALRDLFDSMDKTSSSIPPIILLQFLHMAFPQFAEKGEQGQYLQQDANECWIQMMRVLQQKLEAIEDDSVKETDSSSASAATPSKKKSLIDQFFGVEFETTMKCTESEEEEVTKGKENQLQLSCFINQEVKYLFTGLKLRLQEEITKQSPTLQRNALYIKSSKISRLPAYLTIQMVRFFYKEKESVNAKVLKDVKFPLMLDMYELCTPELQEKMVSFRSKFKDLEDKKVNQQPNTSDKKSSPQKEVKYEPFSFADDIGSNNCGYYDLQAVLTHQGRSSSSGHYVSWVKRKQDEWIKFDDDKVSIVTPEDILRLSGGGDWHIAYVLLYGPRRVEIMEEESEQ
# UniProt P11712, sequence (whole entry, looked up): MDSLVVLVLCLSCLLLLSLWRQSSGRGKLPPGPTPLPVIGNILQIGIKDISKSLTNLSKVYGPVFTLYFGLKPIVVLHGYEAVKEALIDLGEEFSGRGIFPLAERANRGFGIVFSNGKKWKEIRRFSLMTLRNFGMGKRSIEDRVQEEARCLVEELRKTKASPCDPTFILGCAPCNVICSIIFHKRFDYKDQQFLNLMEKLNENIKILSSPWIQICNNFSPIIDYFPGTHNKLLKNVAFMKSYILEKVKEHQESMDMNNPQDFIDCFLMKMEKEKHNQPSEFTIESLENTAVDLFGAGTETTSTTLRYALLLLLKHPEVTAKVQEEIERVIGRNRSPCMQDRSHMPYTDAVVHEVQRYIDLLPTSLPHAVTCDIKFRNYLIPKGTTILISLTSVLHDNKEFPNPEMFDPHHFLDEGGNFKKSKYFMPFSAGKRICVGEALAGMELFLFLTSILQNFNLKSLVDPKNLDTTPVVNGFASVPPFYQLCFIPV
# UniProt P03070, sequence (whole entry, looked up): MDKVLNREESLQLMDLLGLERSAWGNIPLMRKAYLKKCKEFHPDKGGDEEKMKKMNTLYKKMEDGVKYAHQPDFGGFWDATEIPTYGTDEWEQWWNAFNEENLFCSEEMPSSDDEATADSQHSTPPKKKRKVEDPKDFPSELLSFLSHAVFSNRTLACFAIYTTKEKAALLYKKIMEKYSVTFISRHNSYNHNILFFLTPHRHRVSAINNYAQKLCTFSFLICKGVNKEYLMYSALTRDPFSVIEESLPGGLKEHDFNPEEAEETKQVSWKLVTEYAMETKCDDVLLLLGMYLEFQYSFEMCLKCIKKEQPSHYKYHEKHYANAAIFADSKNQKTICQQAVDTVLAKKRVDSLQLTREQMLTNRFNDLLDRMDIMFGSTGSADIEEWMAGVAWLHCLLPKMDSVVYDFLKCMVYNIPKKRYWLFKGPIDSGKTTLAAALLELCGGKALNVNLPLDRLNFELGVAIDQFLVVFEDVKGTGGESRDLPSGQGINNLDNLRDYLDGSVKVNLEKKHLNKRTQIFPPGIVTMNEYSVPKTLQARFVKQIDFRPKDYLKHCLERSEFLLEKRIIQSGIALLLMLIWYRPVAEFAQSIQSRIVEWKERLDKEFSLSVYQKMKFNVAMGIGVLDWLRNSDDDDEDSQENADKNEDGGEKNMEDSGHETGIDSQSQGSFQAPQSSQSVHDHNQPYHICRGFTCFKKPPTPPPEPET
# UniProt P25774, sequence (whole entry, looked up): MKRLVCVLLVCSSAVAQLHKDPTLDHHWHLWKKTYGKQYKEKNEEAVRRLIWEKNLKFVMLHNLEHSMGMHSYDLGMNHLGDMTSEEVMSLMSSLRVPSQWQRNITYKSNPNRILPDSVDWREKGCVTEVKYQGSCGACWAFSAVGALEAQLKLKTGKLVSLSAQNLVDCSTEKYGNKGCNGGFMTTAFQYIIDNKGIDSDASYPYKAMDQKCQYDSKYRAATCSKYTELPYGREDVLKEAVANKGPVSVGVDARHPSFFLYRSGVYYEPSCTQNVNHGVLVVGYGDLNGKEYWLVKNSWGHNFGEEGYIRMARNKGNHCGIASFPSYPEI
# UniProt P51575, sequence (whole entry, unmodified, looked up): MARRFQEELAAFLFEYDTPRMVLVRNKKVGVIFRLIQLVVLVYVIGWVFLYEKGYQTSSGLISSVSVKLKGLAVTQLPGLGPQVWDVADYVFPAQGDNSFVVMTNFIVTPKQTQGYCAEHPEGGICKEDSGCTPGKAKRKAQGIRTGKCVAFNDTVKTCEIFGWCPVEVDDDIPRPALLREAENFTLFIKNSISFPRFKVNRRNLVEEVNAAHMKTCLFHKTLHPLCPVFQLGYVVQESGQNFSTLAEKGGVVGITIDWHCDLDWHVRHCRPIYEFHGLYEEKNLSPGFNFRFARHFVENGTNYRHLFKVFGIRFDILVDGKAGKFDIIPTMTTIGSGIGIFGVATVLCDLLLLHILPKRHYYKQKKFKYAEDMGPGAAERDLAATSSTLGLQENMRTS
# UniProt Q16539, sequence (whole entry, looked up): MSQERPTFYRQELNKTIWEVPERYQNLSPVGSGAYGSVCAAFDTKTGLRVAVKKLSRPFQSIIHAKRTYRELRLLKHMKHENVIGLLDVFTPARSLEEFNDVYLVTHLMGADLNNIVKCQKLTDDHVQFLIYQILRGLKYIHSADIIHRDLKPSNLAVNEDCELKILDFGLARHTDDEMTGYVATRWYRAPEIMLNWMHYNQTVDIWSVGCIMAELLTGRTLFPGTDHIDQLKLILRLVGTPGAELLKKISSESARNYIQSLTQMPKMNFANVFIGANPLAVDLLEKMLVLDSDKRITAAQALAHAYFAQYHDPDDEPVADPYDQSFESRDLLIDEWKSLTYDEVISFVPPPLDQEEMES
Structure (SMILES),tested on,assay,test system,conditions,scale,quantity,result
O=C1c2ccccc2C(=O)c2c1oc1c3c(ccc21)OCN(CCCn1ccnc1)C3,"Ubiquitin carboxyl-terminal hydrolase 14 (USP14, Homo sapiens, UniProt P54578)","enzyme activity, inhibitor",,17 µM,,inhibition,60%
CNC(=O)C1CCCN(C(=O)C2CC3CCC2N3C(=O)[C@@H]2C[C@@H](O)CN2C(=O)NCc2cccc(Cl)c2F)C1 (mixture of isomers),"Cytochrome P450 2C9 (CYP2C9, Homo sapiens, UniProt P11712)",preincubation without NADPH,human,1.85 µM,relative to: negative control,remaining activity,93.5%
Cc1ccc2[c](c1)[Au-]([Cl])([Cl])[n+]1ccccc1-2,"Phospholipid hydroperoxide glutathione peroxidase GPX4 (GPX4, Homo sapiens, UniProt P36969)","inhibitor, GR-coupled NADPH",,"up to 36.3 µM, pre-incubation, with: enzyme 100 nM",,remaining activity,18.7%
O=C1c2cccc(O)c2C(=O)c2c(O)cc(CO)cc21,PNLIP,"enzyme activity, inhibitor, fluorescence",,50 µM,,remaining activity,8.1%
C#CCOC(=O)[C@]1(C)C=C(C(=O)Nc2cccc(C(=O)Nc3ccc(C)c(Nc4nccc(-c5cccnc5)n4)c3)c2)C(=O)CC1,MAPK9,"enzyme activity, inhibitor",,"8.363e-05 µM, unit not given",relative to: vehicle,remaining activity,0.949
O=C1CCC(N2C(=O)c3cccc4c(Cc5cnn(C6CCN(C(=O)CS)CC6)c5)ccc2c34)C(=O)N1 (stereo not drawn),CRBN/Zinc finger protein Aiolos,"protein level, degrader, western blot",NCI-H929,"100 pM, 4 h",,remaining activity,101%
Cc1nn(-c2cccc(N)c2)c(=O)c2cnc(Nc3ccc(N4CCNCC4)cc3)nc12,"Insulin receptor-related protein (INSRR, Homo sapiens, UniProt P14616)",SelectScreen kinase,,,,IC50,> 10 µM
O=c1c2ccccc2c(=O)c2c1ccc1[nH]c3c(ccc4c(=O)c5ccccc5c(=O)c43)[nH]c12,PNLIP,"enzyme activity, inhibitor, fluorescence",,50 µM,,remaining activity,3.9%
Nc1ncc(-c2cc(-c3cnn(CC(F)(F)F)c3)ncc2F)nc1C(=O)NC1CNCC(F)C1 (stereo not drawn),CAMK2D,KINOMEscan,,1 µM,relative to: DMSO control,remaining binding,85%
O=C(Nc1cc(C(=O)Nc2ccc(S(=O)(=O)O)cc2S(=O)(=O)O)cc(C(=O)Nc2ccc(S(=O)(=O)O)cc2S(=O)(=O)O)c1)Nc1cc(C(=O)Nc2ccc(S(=O)(=O)O)cc2S(=O)(=O)O)cc(C(=O)Nc2ccc(S(=O)(=O)O)cc2S(=O)(=O)O)c1,"P2X purinoceptor 1 (P2RX1, Homo sapiens, UniProt P51575, F188L)","calcium influx, antagonist",,"10 µM, with: α,β-methylene ATP submaximal",,remaining activity,0%
CC(C)[C@@H]1NC(=O)[C@H](Cc2ccccc2)NC(=O)CSC[C@@H](C(N)=O)NC(=O)[C@H](CCC(=O)O)NC(=O)[C@H](CO)NC(=O)[C@H](Cc2c[nH]c3cccc(Cl)c23)NC(=O)[C@H](C2CCCCC2)NC(=O)[C@H](C(C)C)NC(=O)[C@H](Cc2ccc(O)cc2)NC(=O)[C@H](CC(=O)O)NC(=O)[C@H](Cc2c[nH]c3ccccc23)NC(=O)[C@H](Cc2ccc(N)nc2)NC(=O)[C@H](Cc2c[nH]c3ccc(Cl)cc23)NC(=O)[C@H](CCC(=O)O)NC1=O,IL1RL2,"reporter gene (SEAP), inhibitor, HEK-Blue IL-36R reporter",HEK-Blue IL-36R cells,"0.41 µM, 6 h, with: IL-36β 100 ng/mL",,remaining activity,96.5%
Cc1ncc2[nH]c(=O)n(-c3cnc(Oc4cccc5c4C(C)(C)CO5)c(Cl)c3C)c2n1,"Voltage-gated potassium channel KCNC1 (KCNC1, Homo sapiens, UniProt P48547)","potassium current, activator, manual patch clamp",,"10 µM, test pulse -60 mV",relative to: control,maximal current,44.9 ± 18.8%
Cc1ccc(-c2c(/C=C(\C#N)C(=O)NC(C)C)n(CCCO)c3ncnc(N)c23)cc1,"Tyrosine-protein kinase ABL1 (ABL1, Homo sapiens, UniProt P00519, F317L)","enzyme activity, inhibitor",,1 µM,,remaining activity,76%
C[n+]1ccc(/C=N/NC(=O)c2cncc(C(=O)N/N=C/c3cc[n+](C)cc3)n2)cc1,MYC parallel G4 DNA,FRET melting,,"1 µM, DNA 0.2 µM",,ΔTm,0.8 ± 0.2 °C
C[C@](C(=O)NC1CCOCC1)(c1cncnc1)N(C(=O)[C@H](F)Cl)c1ccc(OC(F)(F)Cl)cc1,"Coagulation factor XII (F12, Homo sapiens, UniProt P00748)","enzyme activity, inhibitor",,10 µM,,remaining activity,102%
COC(=O)CN1CCCc2cc3cc(C(=O)NC(Cc4cccc(Cl)c4)C(=O)NCC=CS(=O)(=O)c4ccccc4)c(=O)oc3cc21 (stereo not drawn),"Cathepsin S (CTSS, Homo sapiens, UniProt P25774)",inhibitor,,"5 µM, 60 min, with: Z-Phe-Arg-AMC",relative to: uninhibited control,remaining activity,6%
O=C1c2cccc(Cl)c2C(=O)c2c(Cl)cccc21,PNLIP,"enzyme activity, inhibitor, fluorescence",,50 µM,,remaining activity,11.2%
N#Cc1cnc2sc(C(=O)O)cc2c1N1CCc2[nH]nc(C(=O)N[C@@H](CC(=O)NCCOCCN3CCOCC3)c3cccc(Br)c3)c2C1,IL1RL2,"SEAP reporter gene, antagonist",HEK-Blue IL-36R cells,"3.7 µM, 6 h, with: IL-36β 0.003 ng/mL",relative to: untreated,remaining activity,99.8%
CO[C@@H]1[C@@H](OC(=O)c2ccc(C)[nH]2)[C@@H](O)[C@H](Oc2ccc3c(O)c(NC(=O)c4c[nH]c(C(=O)Nc5c(O)c6ccc(O[C@@H]7OC(C)(C)[C@H](OC)[C@@H](OC(=O)c8ccc(C)[nH]8)[C@H]7O)c(C)c6oc5=O)c4C)c(=O)oc3c2C)OC1(C)C,"Large T antigen (Simian virus 40, UniProt P03070)",fork unwinding,,500 µM,,remaining activity,0%
COC1CN([C@H]2CC[C@H]([C@@]3(C)Oc4c(Cl)cc(C(=O)NCc5c(SC)cc(C)[nH]c5=O)c(C)c4O3)CC2)C1,,"RNA-seq, refers to: RAB19 mouse homolog","mouse, HT-1376 xenograft, whole blood",dose not given,relative to: vehicle,log2 fold change,0.25
COc1cc(Nc2nc(C)cc(-c3cnn4nc(OC)ccc34)n2)cc(C(F)(F)F)c1,"Phosphatidylinositol 4,5-bisphosphate 3-kinase catalytic subunit alpha isoform (PIK3CA, Homo sapiens, UniProt P42336, C420R)",inhibitor,,1 µM,relative to: control,remaining activity,76%
CC(C)=CCC/C(C)=C/CC/C(C)=C/CC/C(C)=C/CC1=C(C)C(=O)c2ccccc2C1=O,PNLIP,"enzyme activity, inhibitor, fluorescence",,50 µM,,remaining activity,18.5%
CN(Cc1cc(C2CC2)on1)C(=O)c1cccc(-c2ccc3c(c2)CCO3)c1,"Acetyl-CoA synthetase (Cryptococcus neoformans, UniProt J9VFT1)","enzyme activity, inhibitor, coupled pyrophosphate",,3.13 µM,,remaining activity,93.1% and 100%
O=C1CCC(N2C(=O)c3cccc4c(Cc5cnn(C6CCN(C(=O)C7(O)CC7)CC6)c5)ccc2c34)C(=O)N1 (stereo not drawn),CRBN/Zinc finger protein Aiolos,"protein level, degrader, western blot",NCI-H929,"1 nM, 4 h",,remaining activity,29%
COC(=O)[C@@]1(C)C=C(C(=O)Nc2cccc(C(=O)Nc3ccc(Nc4nccc(-c5cccnc5)n4)c(C)c3)c2)C(=O)CC1,"Mitogen-activated protein kinase 14 (MAPK14, Homo sapiens, UniProt Q16539)","kinase activity, inhibitor",,"0.1829 µM, unit not given",relative to: no inhibitor,remaining activity,1.09
O=C1CCC(N2C(=O)c3cccc4c(Cc5cnn(C6CCNCC6)c5)ccc2c34)C(=O)N1 (stereo not drawn),CRBN/Zinc finger protein Aiolos,"protein level, degrader, western blot",NCI-H929,"10 nM, 4 h",,remaining activity,23.1%
C=C(NC(=O)c1csc(-c2nc3c(cc2O)-c2nc(cs2)C(=O)NC(C(C)O)C(=O)NC(=C(C)OC)c2nc(cs2)C(=O)NC2c4nc(cs4)C(=O)NC(COC(=O)c4c5c6c(cccc6n4O)COC(=O)C(OC4CC(C)(O)C(N(C)C)C(C)O4)C2OC5)c2nc-3cs2)n1)C(N)=O (stereo not drawn),,,"Sprague-Dawley rat, both sexes, plasma","intravenous infusion, 2 mg/kg single dose",,clearance,39.5 mL/min/kg
O=C1CCC(N2C(=O)c3cccc4c(Cc5ccc(CN6CCNCC6)nc5)ccc2c34)C(=O)N1 (stereo not drawn),CRBN/Zinc finger protein Aiolos,"protein level, degrader, western blot",NCI-H929,"1 nM, 4 h",,remaining activity,106%
CC[n+]1cccc2cc(/C=N/NC(=O)c3cc(C(=O)N/N=C/c4ccc5c(ccc[n+]5CC)c4)ncn3)ccc21,MYC parallel G4 DNA,FRET melting,,"1 µM, DNA 0.2 µM",,ΔTm,3.2 ± 0.7 °C
COC(=O)[C@]1(C(C)C)C=C(C(=O)Nc2cccc(C(=O)Nc3ccc(Nc4nccc(-c5cccnc5)n4)c(C)c3)c2)C(=O)CC1,"Mitogen-activated protein kinase 8 (MAPK8, Homo sapiens, UniProt P45983)","kinase activity, inhibitor",,"0.006774 µM, unit not given, with: 10 mM glutathione",relative to: no inhibitor,remaining activity,0.995
O=C1CCC(N2C(=O)c3cccc4c(Cn5cc(C6CCNCC6)nn5)ccc2c34)C(=O)N1 (stereo not drawn),CRBN/Zinc finger protein Aiolos,"protein level, degrader, western blot",NCI-H929,"1 nM, 4 h",,remaining activity,86.3%
Cc1cc(NC(=O)c2cccc(N)c2)ccc1Nc1nccc(-c2cccnc2)n1,MAPK9,"enzyme activity, inhibitor",,"133.3 µM, unit not given",relative to: vehicle,remaining activity,0.0264
O=C1CCC(N2C(=O)c3cccc4c(Cc5cnn(C6CCN(C(=O)CO)CC6)c5)ccc2c34)C(=O)N1 (stereo not drawn),CRBN/Zinc finger protein Aiolos,"protein level, degrader, western blot",NCI-H929,"1 nM, 4 h",,remaining activity,46.9%

# A few entries again:
Structure (SMILES),tested on,assay,test system,conditions,scale,quantity,result
O=C1CCC(N2C(=O)c3cccc4c(Cc5cnn(C6CCN(C(=O)CO)CC6)c5)ccc2c34)C(=O)N1 (stereo not drawn),CRBN/Zinc finger protein Aiolos,"protein level, degrader, western blot",NCI-H929,"1 nM, 4 h",,remaining activity,46.9%
C[C@](C(=O)NC1CCOCC1)(c1cncnc1)N(C(=O)[C@H](F)Cl)c1ccc(OC(F)(F)Cl)cc1,"Coagulation factor XII (F12, Homo sapiens, UniProt P00748)","enzyme activity, inhibitor",,10 µM,,remaining activity,102%
CC(C)=CCC/C(C)=C/CC/C(C)=C/CC/C(C)=C/CC1=C(C)C(=O)c2ccccc2C1=O,PNLIP,"enzyme activity, inhibitor, fluorescence",,50 µM,,remaining activity,18.5%
